Experimental data gathered from unrelated publications.
Parts stem from different laboratories: compare values within a part only.

Block 1 — cell line: HEK-293T; effect on: pseudovirus infection; technique: FDA-approved drug library screen; organism: VSV pseudotyped with SARS-CoV-2 spike; concentration: 10 µM; time: 16 h; relative to: vehicle-treated
`C=C[C@H]1CN2CC[C@H]1C[C@H]2[C@H](OC(=O)OCC)c1ccnc2ccc(OC)cc12` gave a GFP-positive cells of 71.8%.
With `CNC(=O)c1ccccc1Sc1ccc2c(/C=C/c3ccccn3)n[nH]c2c1` the GFP-positive cells was 67.7%.
`CC1(C)S[C@@H]2[C@H](NC(=O)COc3ccccc3)C(=O)N2[C@H]1C(=O)O` has a GFP-positive cells of 101%.

Block 2 — effect on: enzyme activity; action: inhibitor; concentration: 20 µM
Target: Replicase polyprotein 1ab, polymerase (rep, Severe acute respiratory syndrome coronavirus 2, UniProt P0DTD1)
The inhibition of `CCCC(=O)Nc1ccc(OCC(O)CNC(C)C)c(C(C)=O)c1` (centres unmarked) is reported as 0.07%.
For `CCCCCCOc1nsnc1C1=CCCN(C)C1`, the inhibition was -10.1%.
For `CC(C)(C)c1cc(C(C)(C)C)c2c(c1)C(O)(C(F)(F)F)C(=O)O2` (racemic), the inhibition was 4.16%.
`c1ccc(-c2[nH]ncc2-c2ccnc3ccccc23)nc1` gave an inhibition of 0.42%.
`CC(=O)c1ccc(S(=O)(=O)NC(=O)NC2CCCCC2)cc1` has an inhibition of -7.43%.
For `CO[C@H]1CC[C@H](N2C(=O)CNc3ncc(-c4ccc(C(C)(C)O)nc4)nc32)CC1`, the inhibition was 5.72%.
The inhibition of `Cc1cc(O)c(-c2ccc([C@@H](C)CN)cc2)c2c1[nH]c(=O)c1sccc12` is reported as 6.09%.
The inhibition of `CCCCCCCCCCC/C(=N\O)c1cc(C)ccc1O` is reported as -2.18%.
`Nc1ccncc1N` has an inhibition of -3.48%.
For `Nc1nccc(/C=C/c2ccccc2)n1`, the inhibition was -6.39%.
The inhibition of `COC(=O)C1=C(C)NC(C)=C(C(=O)OC)C1c1ccccc1[N+](=O)[O-]` is reported as 35%.
`O=c1n(CC2CO2)c(=O)n(CC2CO2)c(=O)n1CC1CO1` (centres unmarked) gave an inhibition of -0.74%.
For `Cc1ccc(O)c(N=Nc2ccccc2)n1`, the inhibition was 0.88%.
`CCC(C)(C)C(=O)C(=O)N1CCC[C@H]1C(=O)OCCCc1cccnc1` has an inhibition of -0.56%.
With `CN1CCN(c2ccc(C(=O)Nc3n[nH]c4ccc(Cc5cc(F)cc(F)c5)cc34)c(NC3CCOCC3)c2)CC1` the inhibition was -1.19%.
`Nc1c2ccccc2nc2ccccc12` gave an inhibition of 4.6%.
For `Oc1cc2c(cc1O)[C@H]1c3ccccc3CN[C@@H]1CC2` (racemic), the inhibition was -14.9%.
With `O=C(O)CCCC[C@@H]1SC[C@@H]2NC(=O)N[C@@H]21` the inhibition was 20.8%.
`c1cc(-c2cnn3cc(-c4ccc(N5CCNCC5)cc4)cnc23)c2cccnc2c1` has an inhibition of 18.2%.
`C[C@]12C=CC(=O)C=C1CC[C@@H]1[C@@H]2[C@@H](O)C[C@@]2(C)[C@H]1CC[C@]2(O)C(=O)COP(=O)(O)O` gave an inhibition of -2.03%.
`O=C(Nc1cc(C(F)(F)F)ccc1N1CCCCC1)c1ccncc1` has an inhibition of -0.1%.
For `O=c1cc(-c2ccc(O)cc2)oc2cc(O)cc(O)c12`, the inhibition was 3.36%.
`N=C(CC(O)COc1ccccc1-c1ccccc1)N1CCCCC1` (centres unmarked) gave an inhibition of -6.32%.
`CC(C)N(C[C@H]1O[C@@H](n2cnc3c(N)ncnc32)[C@H](O)[C@@H]1O)[C@H]1C[C@@H](CCc2nc3cc(C(C)(C)C)ccc3[nH]2)C1` has an inhibition of -7.27%.
With `Fc1ccc(-c2nc3n(c2-c2ccncc2)CCS3)cc1` the inhibition was -2.02%.

Block 3 — technique: protein binding microarray; molecule type: double-stranded DNA, one strand shown; sample: in vitro; concentration: not given; relative to: not given; reading: higher = stronger binding
Target: Histone acetyltransferase KAT6A, winged helix 2, GST fusion (KAT6A, Homo sapiens, UniProt Q92794, residues 85-181)
Notes: 8-mer, flanks averaged, mean of 2 arrays, mostly near background
Residues (chain): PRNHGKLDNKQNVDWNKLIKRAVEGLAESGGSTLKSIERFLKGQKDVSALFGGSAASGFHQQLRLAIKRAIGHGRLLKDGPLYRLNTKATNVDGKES
The E-score of `ATGCAGTA` is reported as 0.0304.
`GCTCACCC` gave an E-score of 0.0934.
`GACACCAA` gave an E-score of 0.0256.
The E-score of `AGCAGGGA` is reported as -0.053.
The E-score of `CTAAGGGA` is reported as 0.0209.
With `CTCACCCA` the E-score was 0.00473.
`CTTTTGGA` gave an E-score of 0.0799.
`CCAGCTGG` gave an E-score of 0.155.

Block 4 — technique: universal PBM; molecule type: double-stranded DNA, one strand shown; sample: in vitro; concentration: 600 nM; reading: higher = stronger binding
Target: Sal-like protein 4, full length isoform A (SALL4, Homo sapiens, UniProt Q9UJQ4, residues 1-1053)
Chain of UniProt Q9UJQ4 (whole entry, looked up): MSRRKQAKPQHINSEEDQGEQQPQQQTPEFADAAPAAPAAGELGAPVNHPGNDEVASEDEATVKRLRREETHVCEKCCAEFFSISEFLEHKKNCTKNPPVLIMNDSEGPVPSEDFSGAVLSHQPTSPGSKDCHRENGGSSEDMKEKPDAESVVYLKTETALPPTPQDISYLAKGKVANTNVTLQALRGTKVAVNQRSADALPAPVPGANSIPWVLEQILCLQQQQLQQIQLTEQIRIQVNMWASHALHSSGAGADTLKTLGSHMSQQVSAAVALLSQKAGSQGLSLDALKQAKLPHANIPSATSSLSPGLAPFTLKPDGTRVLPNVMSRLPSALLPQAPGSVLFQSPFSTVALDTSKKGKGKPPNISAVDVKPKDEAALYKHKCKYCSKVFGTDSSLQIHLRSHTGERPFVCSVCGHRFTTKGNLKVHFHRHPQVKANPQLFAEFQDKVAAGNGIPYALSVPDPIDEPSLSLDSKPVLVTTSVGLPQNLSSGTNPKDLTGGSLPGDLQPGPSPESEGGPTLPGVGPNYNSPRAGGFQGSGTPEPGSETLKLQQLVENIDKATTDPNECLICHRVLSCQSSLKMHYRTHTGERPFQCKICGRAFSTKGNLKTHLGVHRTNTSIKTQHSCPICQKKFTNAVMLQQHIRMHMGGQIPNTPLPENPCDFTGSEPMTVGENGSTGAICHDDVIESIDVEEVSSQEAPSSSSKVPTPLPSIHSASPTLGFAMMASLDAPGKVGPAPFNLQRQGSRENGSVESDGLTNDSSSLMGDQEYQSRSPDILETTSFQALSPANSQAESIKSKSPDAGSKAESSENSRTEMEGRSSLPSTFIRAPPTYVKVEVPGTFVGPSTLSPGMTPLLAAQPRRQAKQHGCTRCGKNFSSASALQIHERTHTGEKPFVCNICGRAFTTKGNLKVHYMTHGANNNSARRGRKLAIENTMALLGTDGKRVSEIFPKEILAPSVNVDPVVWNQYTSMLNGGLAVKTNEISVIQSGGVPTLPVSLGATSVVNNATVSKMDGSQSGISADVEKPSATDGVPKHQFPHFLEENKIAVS
Notes: 8-mer, flanks averaged, mean of replicates
The E-score of `GGCTTATA` is reported as 0.194.
The E-score of `AACACTCA` is reported as 0.0499.
`AGCCGTCC` gave an E-score of -0.14.
`CAGGCACG` has an E-score of -0.25.
`CCGGTGAG` gave an E-score of -0.333.
`GGCCAAAA` gave an E-score of -0.0328.
For `ACAGTGCA`, the E-score was -0.0521.
For `AAACGAGC`, the E-score was 0.0684.

Block 5 — technique: protein-binding microarray; molecule type: double-stranded DNA, one strand shown; sample: in vitro; concentration: 0.8 µM; notes: whole 60-bp probe, no competitor; reading: higher = stronger binding; constant ends, left off below: … GTCTTGATTCGCTTGACGCTGCTG
Target: Centromere-binding protein 1, full length, N-terminal tag (CBF1, Saccharomyces cerevisiae, UniProt P17106, residues 1-351)
Chain of UniProt P17106 (whole entry, looked up): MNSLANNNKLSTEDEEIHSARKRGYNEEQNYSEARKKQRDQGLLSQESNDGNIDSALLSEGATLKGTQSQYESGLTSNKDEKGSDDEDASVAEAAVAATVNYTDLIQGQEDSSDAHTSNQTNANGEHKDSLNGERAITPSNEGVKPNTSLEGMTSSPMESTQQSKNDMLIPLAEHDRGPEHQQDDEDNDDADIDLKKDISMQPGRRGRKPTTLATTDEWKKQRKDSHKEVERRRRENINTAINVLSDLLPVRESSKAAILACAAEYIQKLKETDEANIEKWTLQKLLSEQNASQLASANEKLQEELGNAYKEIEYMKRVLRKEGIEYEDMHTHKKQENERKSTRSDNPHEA
For `GAAAAGCCATCATCTTGTCAGCTGTTGTCTTGCTAG`, the fluorescence intensity was 587 a.u.
For `CTAGGAAAAGTGTCTCACATGTAAAGGATTAAATTC`, the fluorescence intensity was 730 a.u.
For `GAAAAACCTGCAATACTCGTGATGAATATTTAATAG`, the fluorescence intensity was 1190 a.u.
`GAAGCGTGTCAGCGTGGTCGGCGTACGTAGCAATAG` gave a fluorescence intensity of 595 a.u.
`GAAAATTTATTTCCCCTCATGATAAAACAAGATTAG` gave a fluorescence intensity of 584 a.u.
With `CTATTGTTAGAAATTCACGGGATTTATTCGTGATTC` the fluorescence intensity was 653 a.u.
With `GAAGTCATAAAAAGAGACGTGATTAAACCTAAATAG` the fluorescence intensity was 662 a.u.
With `TGTACGAAGCTATATCACGGAGATATAGTAGTTAGG` the fluorescence intensity was 522 a.u.

Block 6 — effect on: enzyme activity; action: inhibitor; concentration: 20 µM; notes: hit confirmation
Target: Replicase polyprotein 1ab, main protease (rep, Severe acute respiratory syndrome coronavirus 2, UniProt P0DTD1)
`Oc1cc2c(cc1C(c1ccc(C(F)(F)F)cc1)N1CCOCC1)OCO2` (centres unmarked) has an inhibition of 110%.
For `Cc1cc(OI)c(C(C)C)cc1-c1cc(C(C)C)c(OI)cc1C`, the inhibition was 2.8%.
The inhibition of `COc1cc(Br)c(Nc2nc(-c3c(C)nc4ncccn34)cs2)c(Br)c1` is reported as -3.5%.
For `CC1=C(/C=C/C(=C/C=C/C(C)=C/C(=O)O)c2ccc(C)cc2)C(C)(C)CCC1`, the inhibition was 12%.

Some of these lines once more (block 4):
`AGCCGTCC` gave an E-score of -0.14.
`CAGGCACG` has an E-score of -0.25.
`CCGGTGAG` gave an E-score of -0.333.
`GGCCAAAA` gave an E-score of -0.0328.
For `ACAGTGCA`, the E-score was -0.0521.
For `AAACGAGC`, the E-score was 0.0684.
